Measured values collected from several papers.
Numbered parts are unrelated; each lists some results of a single study. Numbers after ± are the reported error.

Study 1
Cell line: CYB5R4 knockout human cells
Read-out: PP6 interaction
Method: 3xFLAG-PP6C IP-MS
Tested at: concentration not given
Relative to: CYB5R4 KO over parental
B1: human RAB13; sequence looked up; chain MAKAYDHLFKLLLIGDSGVGKTCLIIRFAEDNFNNTYISTIGIDFKIRTVDIEGKKIKLQVWDTAGQERFKTITTAYYRGAMGIILVYDITDEKSFENIQNWMKSIKENASAGVERLLLGNKCDMEAKRKVQKEQADKLAREHGIRFFETSAKSSMNVDEAFSSLARDILLKSGGRRSGNGNKPPSTDLKTCDKKNTNKC
B2: human RAB15; sequence looked up; chain MAKQYDVLFRLLLIGDSGVGKTCLLCRFTDNEFHSSHISTIGVDFKMKTIEVDGIKVRIQIWDTAGQERYQTITKQYYRRAQGIFLVYDISSERSYQHIMKWVSDVDEYAPEGVQKILIGNKADEEQKRQVGREQGQQLAKEYGMDFYETSACTNLNIKESFTRLTELVLQAHRKELEGLRMRASNELALAELEEEEGKPEGPANSSKTCWC
B3: phosphoglycerate mutase 4, human; sequence looked up; chain MAAYKLVLIRHGESTWNLENRFSCWYDADLSPAGHEEAKRGGQALRDAGYEFDICLTSVQKRVIRTLWTVLDAIDQMWLPVVRTWRLNERHYGGLTGLNKAETAAKHGEAQVKIWRRSYDVPPPPMEPDHPFYSNISKDRRYADLTEDQLPSYESPKDTIARALPFWNEEIVPQIKEGKRVLIAAHGNSLQGIAKHVEGLSEEAIMELNLPTGIPIVYELDKNLKPIKPMQFLGDEETVCKAIEAVAAQGKAKK
B4: human MCM3; sequence looked up; chain AGTVVLDDVELREAQRDYLDFLDDEEDQGIYQSKVRELISDNQYRLIVNVNDLRRKNEKRANRLLNNAFEELVAFQRALKDFVASIDATYAKQYEEFYVGLEGSFGSKHVSPRTLTSCFLSCVVCVEGIVTKCSLVRPKVVRSVHYCPATKKTIERRYSDLTTLVAFPSSSVYPTKDEENNPLETEYGLSVYKDHQTITIQEMPEKAPAGQLPRSVDVILDDDLVDKAKPGDRVQVVGTYRCLPGKKGGYTSGTFRTVLIACNVKQMSKDAQPSFSAEDIAKIKKFSKTRSKDIFDQLAKSLAPSIHGHDYVKKAILCLLLGGVERDLENGSHIRGDINILLIGDPSVAKSQLLRYVLCTAPRAIPTTGRGSSGVGLTAAVTTDQETGERRLEAGAMVLADRGVVCIDEFDKMSDMDRTAIHEVMEQGRVTIAKAGIHARLNARCSVLAAANPVYGRYDQYKTPMENIGLQDSLLSRFDLLFIMLDQMDPEQDREISDHVLRMHRYRAPGEQDGDAMPLGSAVDILATDDPNFSQEDQQDTQIYEKHDNLLHGTKKKKEKMVSAAFMKKYIHVAKIIKPVLTQESATYIAEEYSRLRSQDSMSSDTARTSPVTARTLETLIRLATAHAKARMSKTVDLQDAEEAVELVQYAYFKKVLEKEKKRKKRSEDESETEDEEEKSQEDQEQKRKRRKTRQPDAKDGDSYDPYDFSDTEEEMPQVHTPKTADSQETKESQKVELSESRLKAFKVALLDVFREAHAQSIGMNRLTESINRDSEEPFSSVEIQAALSKMQDDNQVMVSEGIIFLI
B5: peroxiredoxin-4 (human); sequence looked up; chain WETEERPRTREEECHFYAGGQVYPGEASRVSVADHSLHLSKAKISKPAPYWEGTAVIDGEFKELKLTDYRGKYLVFFFYPLDFTFVCPTEIIAFGDRLEEFRSINTEVVACSVDSQFTHLAWINTPRRQGGLGPIRIPLLSDLTHQISKDYGVYLEDSGHTLRGLFIIDDKGILRQITLNDLPVGRSVDETLRLVQAFQYTDKHGEVCPAGWKPGSETIIPDPAGKLKYFDKLN
B6: human RAB1A; sequence looked up; chain SSMNPEYDYLFKLLLIGDSGVGKSCLLLRFADDTYTESYISTIGVDFKIRTIELDGKTIKLQIWDTAGQERFRTITSSYYRGAHGIIVVYDVTDQESFNNVKQWLQEIDRYASENVNKLLVGNKCDLTTKKVVDYTTAKEFADSLGIPFLETSAKNATNVEQSFMTMAAEIKKRMGPGATAGGAEKSNVKIQSTPVKQSGGGCC
B7: phosphoglycerate mutase 2, human; sequence looked up; chain MATHRLVMVRHGESTWNQENRFCGWFDAELSEKGTEEAKRGAKAIKDAKMEFDICYTSVLKRAIRTLWAILDGTDQMWLPVVRTWRLNERHYGGLTGLNKAETAAKHGEEQVKIWRRSFDIPPPPMDEKHPYYNSISKERRYAGLKPGELPTCESLKDTIARALPFWNEEIVPQIKAGKRVLIAAHGNSLRGIVKHLEGMSDQAIMELNLPTGIPIVYELNKELKPTKPMQFLGDEETVRKAMEAVAAQGKAK
B8: human neuraminidase 2; sequence looked up; chain MASLPVLQKESVFQSGAHAYRIPALLYLPGQQSLLAFAEQRASKKDEHAELIVLRRGDYDAPTHQVQWQAQEVVAQARLDGHRSMNPCPLYDAQTGTLFLFFIAIPGQVTEQQQLQTRANVTRLCQVTSTDHGRTWSSPRDLTDAAIGPAYREWSTFAVGPGHCLQLHDRARSLVVPAYAYRKLHPIQRPIPSAFCFLSHDHGRTWARGHFVAQDTLECQVAEVETGEQRVVTLNARSHLRARVQAQSTNDGLDFQESQLVKKLVEPPPQGCQGSVISFPSPRSGPGSPAQWLLYTHPTHSWQRADLGAYLNPRPPAPEAWSEPVLLAKGSCAYSDLQSMGTGPDGSPLFGCLYEANDYEEIVFLMFTLKQAFPAEYLPQ
Sequence	log2 fold change
B1 (human RAB13)	-0.11
B2 (human RAB15)	-0.11
B3	1.16
B4 (human MCM3)	-1.24
B5 (peroxiredoxin-4)	0.48
B6 (human RAB1A)	-0.1
B7	1.33
B8 (human neuraminidase 2)	0.12

Study 2
Target: U2AF2 148-342 (Homo sapiens, UniProt P26368)
Sequence of UniProt P26368 (whole entry, looked up): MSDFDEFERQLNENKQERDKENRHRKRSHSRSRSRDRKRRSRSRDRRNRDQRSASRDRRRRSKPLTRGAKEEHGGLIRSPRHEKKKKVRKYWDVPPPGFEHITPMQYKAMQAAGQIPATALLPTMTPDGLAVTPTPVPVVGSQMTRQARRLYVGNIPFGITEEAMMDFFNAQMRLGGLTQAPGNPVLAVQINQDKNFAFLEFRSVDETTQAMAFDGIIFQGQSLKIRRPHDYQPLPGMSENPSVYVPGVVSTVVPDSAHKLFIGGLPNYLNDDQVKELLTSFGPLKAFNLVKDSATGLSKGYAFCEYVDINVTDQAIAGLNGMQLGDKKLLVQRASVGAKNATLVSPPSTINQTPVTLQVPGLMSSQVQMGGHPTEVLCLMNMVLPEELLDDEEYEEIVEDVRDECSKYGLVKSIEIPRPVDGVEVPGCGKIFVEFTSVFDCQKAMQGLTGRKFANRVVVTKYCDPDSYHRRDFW
Method: sequencing of bound RNA
Form: RNA
Setting: motif only
All molecules: ssRNA
Sequence	Kd [µM]
UUUGGAAUU	5.97
CAUUUUGUU	4.49
ACUCUUAUC	0.83
AUGAAUUGC	1.17
UCAUUUCAU	4.66
AUCAUUGUU	9.2
UUUCAGAUU	15.3
AAUCUUUUG	13.3

Study 3
Target: SPT15 full length assumed (Saccharomyces cerevisiae, UniProt P13393)
Method: array
Form: double-stranded DNA, one strand shown
Setting: TBP alone
All molecules: dsDNA; 5'-amino-C6 primer
Residues (chain): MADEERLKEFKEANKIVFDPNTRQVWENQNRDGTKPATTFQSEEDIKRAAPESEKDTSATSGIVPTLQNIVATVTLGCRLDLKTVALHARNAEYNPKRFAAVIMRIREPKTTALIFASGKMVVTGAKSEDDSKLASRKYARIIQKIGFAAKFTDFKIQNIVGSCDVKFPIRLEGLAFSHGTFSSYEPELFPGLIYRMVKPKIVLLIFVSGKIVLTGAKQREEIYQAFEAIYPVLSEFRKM
Sequence	Kd [µM]
TTCCTGAAGGGGGGCTATAAAAGGGGGTGGGGGCGTCAAGTCAATCGGTCC	0.0124 ± 0.00075
GGGGGCTATAAAAGGGGGTGGGGGCGCGTTCGTCCTCAAGTCAATCGGTCC	0.0242 ± 0.00201
CGTCACTGGCGTGACCGTCCGCGCTACATACTGCGTCAAGTCAATCGGTCC	0.0178 ± 0.00149

Mixed results
Molecule	assay	test system	setting	how to read	endpoint	result
human ME2 E90D	enzyme activity, activator, NADH absorbance	recombinant enzyme	range over 0 to 5 mM, pH 7.4	relative to: wild type	activation fold	0.6

Repeated from above (study 1):
Sequence	log2 fold change
B1 (human RAB13)	-0.11
B2 (human RAB15)	-0.11
B3	1.16
